Experimental data collected from several papers.
Each numbered part is a random draw from the data of one study; scales do not carry over between parts.
Chain of UniProt P07947 (whole entry, looked up): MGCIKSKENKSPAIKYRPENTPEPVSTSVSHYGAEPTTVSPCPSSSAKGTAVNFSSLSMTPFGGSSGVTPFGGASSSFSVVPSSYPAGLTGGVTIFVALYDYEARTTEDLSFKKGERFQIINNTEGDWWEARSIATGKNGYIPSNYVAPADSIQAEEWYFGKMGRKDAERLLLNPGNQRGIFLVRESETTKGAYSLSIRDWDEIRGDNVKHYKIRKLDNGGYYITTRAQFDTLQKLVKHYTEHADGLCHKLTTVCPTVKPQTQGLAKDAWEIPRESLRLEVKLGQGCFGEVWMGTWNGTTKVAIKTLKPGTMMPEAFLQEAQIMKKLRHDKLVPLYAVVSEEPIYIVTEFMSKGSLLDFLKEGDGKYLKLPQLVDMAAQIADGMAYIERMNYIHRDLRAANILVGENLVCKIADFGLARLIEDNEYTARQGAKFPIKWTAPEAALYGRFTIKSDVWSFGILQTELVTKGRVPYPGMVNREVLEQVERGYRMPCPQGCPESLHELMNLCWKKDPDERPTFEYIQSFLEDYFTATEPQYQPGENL
Chain of UniProt Q9Y2U5 (whole entry, looked up): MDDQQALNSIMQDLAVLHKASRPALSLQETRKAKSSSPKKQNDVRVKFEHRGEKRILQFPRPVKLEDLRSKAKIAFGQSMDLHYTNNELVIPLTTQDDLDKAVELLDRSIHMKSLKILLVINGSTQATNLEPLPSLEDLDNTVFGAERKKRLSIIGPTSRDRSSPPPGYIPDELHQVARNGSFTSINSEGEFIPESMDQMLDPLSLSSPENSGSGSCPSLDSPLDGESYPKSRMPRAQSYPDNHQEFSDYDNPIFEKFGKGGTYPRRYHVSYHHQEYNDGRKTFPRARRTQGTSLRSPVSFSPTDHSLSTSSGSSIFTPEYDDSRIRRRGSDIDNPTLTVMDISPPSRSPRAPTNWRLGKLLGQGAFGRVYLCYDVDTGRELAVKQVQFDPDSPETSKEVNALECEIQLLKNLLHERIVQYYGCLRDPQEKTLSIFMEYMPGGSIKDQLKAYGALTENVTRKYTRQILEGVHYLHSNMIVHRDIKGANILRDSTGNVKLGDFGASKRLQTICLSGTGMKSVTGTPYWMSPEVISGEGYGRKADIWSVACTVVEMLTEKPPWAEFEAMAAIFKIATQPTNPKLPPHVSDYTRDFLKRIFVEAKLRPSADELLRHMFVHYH
Chain of UniProt P10721 (whole entry, unmodified, looked up): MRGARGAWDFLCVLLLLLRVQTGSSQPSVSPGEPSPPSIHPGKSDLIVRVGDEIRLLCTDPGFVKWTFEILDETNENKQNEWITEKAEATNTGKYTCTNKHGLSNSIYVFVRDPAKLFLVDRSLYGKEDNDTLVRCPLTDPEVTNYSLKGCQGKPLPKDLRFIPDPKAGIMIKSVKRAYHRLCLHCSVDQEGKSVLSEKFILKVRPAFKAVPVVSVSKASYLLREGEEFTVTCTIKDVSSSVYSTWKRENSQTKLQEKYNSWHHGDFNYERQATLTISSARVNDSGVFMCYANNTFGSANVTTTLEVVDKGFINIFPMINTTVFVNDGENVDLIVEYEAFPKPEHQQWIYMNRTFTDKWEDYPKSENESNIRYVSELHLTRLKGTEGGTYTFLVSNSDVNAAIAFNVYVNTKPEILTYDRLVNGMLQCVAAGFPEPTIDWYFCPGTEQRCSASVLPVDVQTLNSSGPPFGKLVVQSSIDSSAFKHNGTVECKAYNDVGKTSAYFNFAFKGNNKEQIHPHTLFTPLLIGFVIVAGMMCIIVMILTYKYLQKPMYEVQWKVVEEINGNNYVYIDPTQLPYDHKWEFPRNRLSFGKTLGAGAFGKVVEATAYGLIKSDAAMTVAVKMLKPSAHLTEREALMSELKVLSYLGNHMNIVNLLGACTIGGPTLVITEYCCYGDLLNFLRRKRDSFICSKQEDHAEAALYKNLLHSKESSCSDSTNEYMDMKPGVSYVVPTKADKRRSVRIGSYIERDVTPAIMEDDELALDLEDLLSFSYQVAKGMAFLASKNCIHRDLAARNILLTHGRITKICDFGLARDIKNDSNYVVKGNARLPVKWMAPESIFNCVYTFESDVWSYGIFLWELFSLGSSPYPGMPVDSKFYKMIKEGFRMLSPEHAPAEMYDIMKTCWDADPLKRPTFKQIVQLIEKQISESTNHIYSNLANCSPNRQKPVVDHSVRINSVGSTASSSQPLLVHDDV
Chain of UniProt Q15418 (whole entry, looked up): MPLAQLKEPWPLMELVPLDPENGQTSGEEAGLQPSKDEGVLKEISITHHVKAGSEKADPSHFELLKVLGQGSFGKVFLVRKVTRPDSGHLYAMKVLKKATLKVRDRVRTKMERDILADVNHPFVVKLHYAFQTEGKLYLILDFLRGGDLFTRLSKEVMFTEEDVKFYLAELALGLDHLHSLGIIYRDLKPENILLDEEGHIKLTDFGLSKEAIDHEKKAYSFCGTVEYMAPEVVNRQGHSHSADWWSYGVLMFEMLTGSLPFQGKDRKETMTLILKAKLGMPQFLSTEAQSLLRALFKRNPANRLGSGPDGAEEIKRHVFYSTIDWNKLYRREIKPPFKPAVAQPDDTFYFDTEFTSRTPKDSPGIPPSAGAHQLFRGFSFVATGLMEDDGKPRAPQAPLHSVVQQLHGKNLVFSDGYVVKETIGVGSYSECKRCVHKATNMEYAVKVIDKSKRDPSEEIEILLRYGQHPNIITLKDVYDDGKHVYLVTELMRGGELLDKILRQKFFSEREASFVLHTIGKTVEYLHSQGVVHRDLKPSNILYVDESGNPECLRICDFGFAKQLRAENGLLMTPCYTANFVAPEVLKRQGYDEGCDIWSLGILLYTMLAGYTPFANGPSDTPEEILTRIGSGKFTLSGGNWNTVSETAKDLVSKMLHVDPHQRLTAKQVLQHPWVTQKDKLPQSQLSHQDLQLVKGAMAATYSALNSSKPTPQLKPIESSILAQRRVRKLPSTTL
Chain of UniProt P52333 (whole entry, looked up): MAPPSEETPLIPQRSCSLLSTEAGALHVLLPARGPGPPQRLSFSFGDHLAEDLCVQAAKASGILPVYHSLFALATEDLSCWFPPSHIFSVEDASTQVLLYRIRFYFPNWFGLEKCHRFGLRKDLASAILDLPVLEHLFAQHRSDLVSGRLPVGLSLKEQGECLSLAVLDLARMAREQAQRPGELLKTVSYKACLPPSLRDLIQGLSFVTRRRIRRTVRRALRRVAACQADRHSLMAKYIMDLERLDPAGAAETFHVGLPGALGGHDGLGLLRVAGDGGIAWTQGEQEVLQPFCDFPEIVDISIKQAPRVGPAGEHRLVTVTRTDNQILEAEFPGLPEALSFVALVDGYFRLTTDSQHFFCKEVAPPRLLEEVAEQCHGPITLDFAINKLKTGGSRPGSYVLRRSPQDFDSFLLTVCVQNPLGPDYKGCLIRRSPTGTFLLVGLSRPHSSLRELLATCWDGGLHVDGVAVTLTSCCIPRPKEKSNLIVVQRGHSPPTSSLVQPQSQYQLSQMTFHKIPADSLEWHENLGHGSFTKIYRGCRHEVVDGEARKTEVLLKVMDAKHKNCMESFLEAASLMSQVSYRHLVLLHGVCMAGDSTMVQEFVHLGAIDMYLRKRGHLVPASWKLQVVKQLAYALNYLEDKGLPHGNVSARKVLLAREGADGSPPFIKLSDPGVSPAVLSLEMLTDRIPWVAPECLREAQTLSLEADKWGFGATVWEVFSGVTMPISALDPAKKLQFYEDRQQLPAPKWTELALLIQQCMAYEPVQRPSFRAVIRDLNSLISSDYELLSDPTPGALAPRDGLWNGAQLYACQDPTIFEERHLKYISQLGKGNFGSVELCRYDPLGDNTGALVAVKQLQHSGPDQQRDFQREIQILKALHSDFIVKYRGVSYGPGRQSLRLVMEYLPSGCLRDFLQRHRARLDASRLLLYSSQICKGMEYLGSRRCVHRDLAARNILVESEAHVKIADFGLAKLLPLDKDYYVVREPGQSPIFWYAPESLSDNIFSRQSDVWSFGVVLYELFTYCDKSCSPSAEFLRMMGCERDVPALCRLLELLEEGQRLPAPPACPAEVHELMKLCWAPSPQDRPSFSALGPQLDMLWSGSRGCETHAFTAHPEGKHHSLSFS
Chain of UniProt Q16513 (whole entry, looked up): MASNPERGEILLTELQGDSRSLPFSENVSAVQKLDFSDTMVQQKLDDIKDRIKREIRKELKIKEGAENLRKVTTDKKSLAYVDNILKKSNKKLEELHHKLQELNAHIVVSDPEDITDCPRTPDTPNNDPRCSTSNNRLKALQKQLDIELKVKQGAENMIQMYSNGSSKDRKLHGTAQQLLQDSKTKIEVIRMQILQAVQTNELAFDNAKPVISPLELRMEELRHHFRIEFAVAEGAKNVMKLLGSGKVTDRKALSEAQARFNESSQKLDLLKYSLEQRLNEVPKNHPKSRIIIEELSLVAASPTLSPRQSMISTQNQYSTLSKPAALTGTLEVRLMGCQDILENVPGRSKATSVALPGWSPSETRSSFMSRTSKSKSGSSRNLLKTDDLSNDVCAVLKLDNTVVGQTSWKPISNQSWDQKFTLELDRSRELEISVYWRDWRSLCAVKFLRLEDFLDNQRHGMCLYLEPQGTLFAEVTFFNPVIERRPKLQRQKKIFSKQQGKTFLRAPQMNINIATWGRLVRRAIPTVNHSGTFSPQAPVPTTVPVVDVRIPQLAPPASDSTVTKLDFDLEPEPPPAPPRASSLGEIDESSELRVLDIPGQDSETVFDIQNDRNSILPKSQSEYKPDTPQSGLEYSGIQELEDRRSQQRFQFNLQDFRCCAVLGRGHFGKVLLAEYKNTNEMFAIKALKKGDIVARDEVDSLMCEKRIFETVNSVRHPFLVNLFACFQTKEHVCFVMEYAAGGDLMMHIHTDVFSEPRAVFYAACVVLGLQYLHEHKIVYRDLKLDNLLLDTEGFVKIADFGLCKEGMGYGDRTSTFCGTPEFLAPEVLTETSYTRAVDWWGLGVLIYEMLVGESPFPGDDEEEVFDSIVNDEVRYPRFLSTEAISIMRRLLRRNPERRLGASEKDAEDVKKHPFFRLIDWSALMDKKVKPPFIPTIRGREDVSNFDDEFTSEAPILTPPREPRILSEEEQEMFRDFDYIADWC

Block 1 — species: mouse; matrix: microsomes or S9; tested at: 2 µM; time: 0.5 h
| SMILES | remaining compound |
| --- | --- |
| Cc1oc(-c2[nH]ncc2C(=O)N(C)C)cc1S(=O)(=O)NCCCN(C)C | 85.7% |
| Cn1ccnc1COC(=O)c1cc(C(C)(C)C)n[nH]1 | 0.0785% |
| CCN(CCCN1C(=O)CCC1(C)C(=O)NCCC(C)C)c1cccc(C)c1 (stereo not shown) | 0.746% |
| O=c1[nH]nc2c3scc(-c4ccc(F)cc4)c3ncn12 | 71.6% |
| O=S1(=O)N=C(Nc2ccc3c(c2)Cc2ccccc2-3)c2ccccc21 | > 99.9% |

Block 2 — method: phase 2a trial; species: idiopathic pulmonary fibrosis patients
SMILES: CC(C)n1cnc(-c2ccc(F)cc2)c1-c1ncc(C(=O)Nc2ccc(N3CCN(C)CC3)cc2)[nH]1
| dose | setting | patients with bronchitis [%] |
| --- | --- | --- |
| 60 mg once daily | grade 1 emergent event | 0 |
| 60 mg once daily | grade 3 emergent event | 0 |
| 60 mg once daily | grade 4 emergent event | 0 |
| 30 mg once daily | grade 5 emergent event | 0 |
| 30 mg once daily | grade 4 emergent event | 0 |

Block 3 — cell line: mouse MPNST tumor cells; method: high-content nuclear imaging; refers to: cell number; tested at: 10 µM; time: 12 h; setting: mean of 2 replicates; reference: plate mean; reading: higher = more cells
| Structure (SMILES) | nuclei count |
| --- | --- |
| C[C@@H](CN1CCC(n2c(=O)[nH]c3cc(Cl)ccc32)CC1)NC(=O)c1ccc2ccccc2c1 | -6.12 z-score |
| Oc1nc(-c2ccc(C(F)(F)F)cc2)nc2c1CSCC2 | -0.214 z-score |
| O=C(O)Cc1sc(-c2ccccc2)nc1-c1ccc(Cl)cc1 | -0.0629 z-score |
| NC(N)=Nc1nc(CSCC/C(N)=N/S(N)(=O)=O)cs1 | 2.78 z-score |
| CC(C)Oc1ccc(Cc2ccc(NC3=NCCN3)cc2)cc1 | -3.63 z-score |

Block 4 — observed: cell-free assay; method: competition with immobilised ligand; tested at: 1 µM
SMILES: CS(=O)(=O)c1cc(C2(NC(=O)c3cncc4c3cnn4-c3ccc(F)cc3)CC2)ccn1
| target | remaining binding [%] |
| --- | --- |
| Wee1-like protein kinase (WEE1, Homo sapiens, UniProt P30291) | 100 |
| Serine/threonine-protein kinase pim-3 (PIM3, Homo sapiens, UniProt Q86V86) | 100 |
| Mitogen-activated protein kinase kinase kinase 2 (MAP3K2, Homo sapiens, UniProt Q9Y2U5) | 84 |
| Mast/stem cell growth factor receptor Kit (KIT, Homo sapiens, UniProt P10721, V559D/V654A) | 88 |
| Bone morphogenetic protein receptor type-1A (BMPR1A, Homo sapiens, UniProt P36894) | 100 |
| Tyrosine-protein kinase JAK3, JH1 (JAK3, Homo sapiens, UniProt P52333) | 75 |
| Tyrosine-protein kinase Yes (YES1, Homo sapiens, UniProt P07947) | 100 |
| Serine/threonine-protein kinase N2 (PKN2, Homo sapiens, UniProt Q16513) | 100 |
| Serine/threonine-protein kinase LATS2 (LATS2, Homo sapiens, UniProt Q9NRM7) | 100 |
| Ribosomal protein S6 kinase alpha-1, C-terminal kinase domain (RPS6KA1, Homo sapiens, UniProt Q15418) | 79 |
| Phosphatidylinositol 4,5-bisphosphate 3-kinase catalytic subunit alpha isoform (PIK3CA, Homo sapiens, UniProt P42336, I800L) | 68 |
| Ephrin type-B receptor 1 (EPHB1, Homo sapiens, UniProt P54762) | 91 |
| Tyrosine-protein kinase Srms (SRMS, Homo sapiens, UniProt Q9H3Y6) | 86 |

For quick reference, copied from above (block 3):
| Structure (SMILES) | nuclei count |
| --- | --- |
| Oc1nc(-c2ccc(C(F)(F)F)cc2)nc2c1CSCC2 | -0.214 z-score |
| CC(C)Oc1ccc(Cc2ccc(NC3=NCCN3)cc2)cc1 | -3.63 z-score |
| O=C(O)Cc1sc(-c2ccccc2)nc1-c1ccc(Cl)cc1 | -0.0629 z-score |
